# Measured values from different studies.
# Each line is one published result; not all experiments were run side by side.
Structure (SMILES),system,conditions,quantity,value
Cc1cc(C)c(CNC(=O)c2cc(Cl)c3c(c2C)O[C@@](C)([C@H]2CC[C@H](N(C)C)CC2)O3)c(=O)[nH]1,blood and plasma,,blood to plasma ratio,0.6
CNC(=O)c1ccc(-c2cnc3ncc(Cc4ccc5ncccc5c4)n3n2)cc1F,Japanese patients,"oral, 400 mg, any grade",blood creatinine increased dose reduction/interruption,5%
O=C1CC[C@H](N2Cc3cc(N4CCN(CC5CCN(c6ccc([C@@H]7c8ccc(O)cc8CC[C@@H]7c7ccccc7)cc6)CC5)CC4)ccc3C2=O)C(=O)N1,rat whole blood,"2.5 µM, 60 min",blood to plasma ratio,0.71
COc1cc(Cl)c(C(=O)N[C@@H](CN[C@H]2CC[C@@H](N)CC2)Cc2ccc(C#N)cc2)cc1-c1ccc(CN[C@H](C)c2ccc(C)cc2)o1,human liver microsomes,"1 µM, pH 7.4",blood clearance,25 mL/min/kg
Cc1ccc(Sc2ccccc2N2CCNCC2)c(C)c1,healthy adult men,"oral, 2.5 mg single",blood in urine,0%
NC/C(=C\F)COc1cccc(Cn2c(=S)[nH]c(=O)c3[nH]cnc32)c1,human whole blood,"1 µM, 60 min",blood to plasma ratio,0.99
C=CC(=O)N(C)CCOc1c(N)ncnc1-c1cc(F)cc(NC(=O)c2ccc(C3CC3)cc2F)c1C,whole blood and plasma,,blood to plasma ratio,0.955
COc1ccc([C@@H](O)c2cc(-c3ncnc4cc(N5CCOCC5)ccc34)c(F)cc2Cl)nn1,locally advanced rectal cancer patients,"50 mg, added: capecitabine and radiotherapy",blood lymphatic disorder TEAE,0%
C=C(F)C(=O)N1CCN(c2nc(OC[C@@H]3CCCN3C)nc3c2CCN(c2cccc4cccc(Cl)c24)C3)C[C@@H]1CC#N,blood,,blood to plasma ratio,0.7

# Repeated from above:
Structure (SMILES),system,conditions,quantity,value
COc1cc(Cl)c(C(=O)N[C@@H](CN[C@H]2CC[C@@H](N)CC2)Cc2ccc(C#N)cc2)cc1-c1ccc(CN[C@H](C)c2ccc(C)cc2)o1,human liver microsomes,"1 µM, pH 7.4",blood clearance,25 mL/min/kg
